Results gathered from unrelated publications.
Numbered parts are unrelated; each lists some results of a single study. Positions count from the first letter of the parent shown.

Block 1 — technique: protein-binding microarray; molecule type: double-stranded DNA, one strand shown; medium: in vitro; concentration: 250 nM; notes: 60-bp whole probe; together with: salmon DNA 0.4 mg/ml; relative to: random background probes; reading: higher = stronger binding; shared flanks, not repeated: GCCTAGCAC … GTCTTGATTCGCTTGACGCTGCTG
Target: Interferon regulatory factor 7, full length, phosphomimetic (IRF7, Homo sapiens, UniProt Q92985, residues 1-503, S101K/S471D/S472D/S475D/S476D/S477D/S483D/S484D/S487D)
Sequence of UniProt Q92985 (whole entry, unmodified, looked up): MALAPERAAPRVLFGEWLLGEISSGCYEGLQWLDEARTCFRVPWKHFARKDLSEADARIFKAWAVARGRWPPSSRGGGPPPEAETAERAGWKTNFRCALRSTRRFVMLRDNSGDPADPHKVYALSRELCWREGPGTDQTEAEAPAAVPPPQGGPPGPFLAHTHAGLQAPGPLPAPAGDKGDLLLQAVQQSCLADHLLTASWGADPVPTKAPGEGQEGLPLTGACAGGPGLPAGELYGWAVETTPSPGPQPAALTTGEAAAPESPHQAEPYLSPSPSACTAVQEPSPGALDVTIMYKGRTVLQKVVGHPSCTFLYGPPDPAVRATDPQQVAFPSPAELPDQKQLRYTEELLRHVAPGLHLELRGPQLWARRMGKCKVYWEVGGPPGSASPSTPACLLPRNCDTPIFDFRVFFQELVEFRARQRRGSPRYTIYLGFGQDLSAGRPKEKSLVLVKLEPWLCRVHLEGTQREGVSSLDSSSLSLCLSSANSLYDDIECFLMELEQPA
`TTAGGTATCGGCACTGGGTTAGTGCTA` gave a log fluorescence of -0.571 z-score.
For `CTTCATGTGCCTTTATATACGTGCTAG`, the log fluorescence was -0.312 z-score.
`GACGGTCTCCTACTGCTAACGTGCTAG` has a log fluorescence of -0.202 z-score.
For `TCAACTTCGGCCTCTAGGACTGTGCTA`, the log fluorescence was -0.153 z-score.
`GACGGTTTCGACTTTTGGGACGTGCTA` gave a log fluorescence of 8.91 z-score.
`GACGGTTACGGGACTGGGGACGTGCTA` gave a log fluorescence of -0.537 z-score.
`GACGATATCGGGACAGGAGACGTGCTA` has a log fluorescence of -0.238 z-score.
`TTATGTTTCGGGACTGGGTTAGTGCTA` has a log fluorescence of 1.47 z-score.
The log fluorescence of `TCAATCTTATGATATATAACTGTGCTA` is reported as 0.134 z-score.
With `TTAGGTTTCGTTCTCGGTTAGTGCTAG` the log fluorescence was 10 z-score.
With `TCAAGTTTAATATCTAAGACTGTGCTA` the log fluorescence was 0.0224 z-score.
`TCATTTACAGGTTCTCTTACTGTGCTA` has a log fluorescence of 1.28 z-score.
The log fluorescence of `TCATGTATGGATGTGTCACTGTGCTAG` is reported as -0.224 z-score.
With `TCACCTCTAGGTCTTCTACTGTGCTAG` the log fluorescence was -0.0127 z-score.
`GACGAACTGGACACTGGGGACGTGCTA` has a log fluorescence of -0.492 z-score.
The log fluorescence of `TTAGGTTTCCTTTTCCTTGAGTGCTAG` is reported as 6.72 z-score.
`TCAAAAATGATTGGTTGACTGTGCTAG` has a log fluorescence of -0.412 z-score.
`TCATTTTGCTTTCTTTTACTGTGCTAG` has a log fluorescence of 1.93 z-score.

Block 2 — target: CREB5, bZIP domain (human); technique: DHFR protein complementation; medium: yeast; relative to: wild-type JUN-FOS pair; reading: higher = stronger binding
Notes: single substitutions, most at no-binding floor
Parent: JUN, bZIP domain (human); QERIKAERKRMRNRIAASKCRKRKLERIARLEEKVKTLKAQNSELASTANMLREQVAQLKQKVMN; partner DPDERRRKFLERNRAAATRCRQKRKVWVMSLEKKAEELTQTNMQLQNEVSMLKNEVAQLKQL
For `I28P`, the binding fitness was -0.822 natural log.
With `I28F` the binding fitness was -0.563 natural log.
With `Q41K` the binding fitness was -0.344 natural log.
With `T37H` the binding fitness was -0.17 natural log.
The binding fitness of `Q55M` is reported as -0.499 natural log.
`Q55R` has a binding fitness of -0.519 natural log.
`K34V` has a binding fitness of -0.404 natural log.
`L52E` has a binding fitness of -1.4 natural log.
With `A40S` the binding fitness was -0.329 natural log.
The binding fitness of `A29W` is reported as -0.379 natural log.
`V56P` gave a binding fitness of -1.42 natural log.
With `E44G` the binding fitness was -0.729 natural log.
`A46E` gave a binding fitness of -0.184 natural log.
With `A46W` the binding fitness was -0.647 natural log.
With `E54H` the binding fitness was -0.53 natural log.
For `L45C`, the binding fitness was -1.32 natural log.
With `V35D` the binding fitness was -1.4 natural log.
The binding fitness of `A57Y` is reported as -0.473 natural log.
For `E54L`, the binding fitness was -0.539 natural log.
`K39I` has a binding fitness of -0.406 natural log.
With `K36F` the binding fitness was -0.7 natural log.
For `V56C`, the binding fitness was -0.673 natural log.
The binding fitness of `A49C` is reported as -0.615 natural log.

Block 3 — target: CRIPT, C-terminal peptide; technique: DHFR complementation, deep sequencing; medium: yeast; relative to: wild type; reading: higher = weaker binding
Notes: single substitutions, model-inferred values
Parent: ERBIN, PDZ domain 1 (human); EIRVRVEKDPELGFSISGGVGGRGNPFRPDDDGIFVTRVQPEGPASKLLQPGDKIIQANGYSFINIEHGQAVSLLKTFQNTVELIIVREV; partner TKNYKQTSV
`E83Y`: “binding free energy change” 0.221 kcal/mol.
`G33K` — result for “binding free energy change”: 0.632 kcal/mol.
Under “binding free energy change”, `G43K` is recorded as 0.384 kcal/mol.
Under “binding free energy change”, `E11A` is recorded as -0.121 kcal/mol.
Under “binding free energy change”, `V87E` is recorded as -0.165 kcal/mol.
`H68I`: “binding free energy change” 1.39 kcal/mol.
Under “binding free energy change”, `D31A` is recorded as 0.817 kcal/mol.
Under “binding free energy change”, `S17C` is recorded as -0.0145 kcal/mol.
`V20K` — result for “binding free energy change”: -0.152 kcal/mol.
`S46H` — result for “binding free energy change”: 0.00646 kcal/mol.
For `P51I`, “binding free energy change” read 0.268 kcal/mol.
`S62D` — result for “binding free energy change”: 0.09 kcal/mol.
For `Q57Y`, “binding free energy change” read 0.121 kcal/mol.
`T77F` — result for “binding free energy change”: 0.233 kcal/mol.
For `R5A`, “binding free energy change” read 0.00165 kcal/mol.
Under “binding free energy change”, `N25K` is recorded as 1.1 kcal/mol.
`G18H`: “binding free energy change” 1.57 kcal/mol.
`K8W`: “binding free energy change” 1.61 kcal/mol.
`G22K`: “binding free energy change” 0.714 kcal/mol.
`V20E`: “binding free energy change” -0.11 kcal/mol.
`V36F` — result for “binding free energy change”: 0.997 kcal/mol.
`V72T`: “binding free energy change” 1.12 kcal/mol.
Under “binding free energy change”, `G24F` is recorded as 1.27 kcal/mol.
For `N65I`, “binding free energy change” read 0.2 kcal/mol.
For `G19R`, “binding free energy change” read 1.3 kcal/mol.

Block 4 — technique: RNAcompete; molecule type: RNA; medium: in vitro; concentration: 20 nM; notes: 7-mer, probes averaged, single round; relative to: mean of 7-mers; reading: higher = stronger binding
Target: PABPC1L2, full length, GST fusion (mouse, UniProt A0ABA7IW68)
Construct (chain): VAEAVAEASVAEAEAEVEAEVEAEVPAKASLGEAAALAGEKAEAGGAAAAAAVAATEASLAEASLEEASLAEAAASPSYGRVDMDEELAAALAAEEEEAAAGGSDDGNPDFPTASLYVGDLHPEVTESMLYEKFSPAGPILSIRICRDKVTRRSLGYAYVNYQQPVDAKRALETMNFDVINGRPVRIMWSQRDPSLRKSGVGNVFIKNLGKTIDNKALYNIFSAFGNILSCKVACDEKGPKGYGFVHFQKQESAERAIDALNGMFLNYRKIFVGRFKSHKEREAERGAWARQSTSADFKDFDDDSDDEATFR
For `UACCUGA`, the 7-mer Z-score was -0.233.
The 7-mer Z-score of `GCCAUGG` is reported as -0.271.
The 7-mer Z-score of `AGCUUUG` is reported as -0.383.
`UGUUACC` has a 7-mer Z-score of -0.325.
For `UUGAGUA`, the 7-mer Z-score was -0.0881.
`GGCGCGG` gave a 7-mer Z-score of 0.0877.
The 7-mer Z-score of `AUAGUGC` is reported as -0.155.
`ACAACGA` gave a 7-mer Z-score of 0.274.
`CAGAUUU` gave a 7-mer Z-score of -0.13.
With `UCGGACU` the 7-mer Z-score was -0.248.
For `UUCCGCU`, the 7-mer Z-score was -0.463.
For `CCGCCCC`, the 7-mer Z-score was -0.586.
The 7-mer Z-score of `AAGCAUG` is reported as 0.211.
`CCUGGGA` gave a 7-mer Z-score of -0.122.
For `CACUACA`, the 7-mer Z-score was -0.0156.
`AAGGAGC` has a 7-mer Z-score of 0.327.
For `UGAAGAG`, the 7-mer Z-score was -0.108.
With `CUGCCAA` the 7-mer Z-score was -0.128.

Block 5 — technique: protein-binding microarray; molecule type: double-stranded DNA, one strand shown; medium: in vitro; concentration: not given; reading: higher = stronger binding
Target: Cyclic AMP-responsive element-binding protein 1 (CREB1, Homo sapiens, UniProt P16220, residues 1-327, full length assumed)
Sequence of UniProt P16220 (whole entry, looked up): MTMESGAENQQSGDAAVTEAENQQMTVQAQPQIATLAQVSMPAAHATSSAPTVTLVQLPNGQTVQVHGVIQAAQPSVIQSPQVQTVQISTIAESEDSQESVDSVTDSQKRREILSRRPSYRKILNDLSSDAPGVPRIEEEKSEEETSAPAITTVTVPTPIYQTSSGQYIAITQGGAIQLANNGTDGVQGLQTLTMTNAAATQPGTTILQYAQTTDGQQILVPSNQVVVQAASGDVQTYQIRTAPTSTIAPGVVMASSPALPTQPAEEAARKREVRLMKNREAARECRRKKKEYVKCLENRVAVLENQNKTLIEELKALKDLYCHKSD
Notes: k-mer, scored over probes, only values ≥0.25
`ATGACAT` gave an E-score of 0.322.
`CATAACA` gave an E-score of 0.28.
`AAAAAAC` has an E-score of 0.257.
For `CGTCACA`, the E-score was 0.487.
With `TGACGAA` the E-score was 0.378.
The E-score of `ACGTAGT` is reported as 0.263.
The E-score of `CGTAATA` is reported as 0.385.
With `ACGTACA` the E-score was 0.283.
`ACTATGG` has an E-score of 0.261.
For `AAGATGA`, the E-score was 0.261.
`AATAACG` has an E-score of 0.335.
The E-score of `CATATAA` is reported as 0.27.
For `ACGACAT`, the E-score was 0.27.
`GTCATAA` has an E-score of 0.376.

Block 6 — target: CCNF, cyclin fold, Cln2 fusion (human); technique: yeast growth competition, sequencing; medium: yeast; notes: weak parent motif; relative to: not given; reading: higher = stronger binding
Parent: FOXM1 docking peptide (human); PHLARPIKVESPP
`L3A`: “normalised enrichment score” 0.218.
Under “normalised enrichment score”, `E10A` is recorded as -0.89.
`P6A` — result for “normalised enrichment score”: -0.074.
Under “normalised enrichment score”, `V9A` is recorded as -0.182.
Under “normalised enrichment score”, `P12A` is recorded as -1.31.
`P13A` — result for “normalised enrichment score”: -0.539.

Block 7 — technique: DHFR PCA, dose-response; medium: yeast; notes: Hill fit, mean, not affinity; together with: (+)-ABA, dose series; reading: lower = more sensitive
Target: ABI1, truncated, D143A, DHFR fusion (Arabidopsis thaliana, UniProt P49597)
Parent: PYL1, truncated, DHFR fusion (Arabidopsis thaliana, UniProt Q8VZS8); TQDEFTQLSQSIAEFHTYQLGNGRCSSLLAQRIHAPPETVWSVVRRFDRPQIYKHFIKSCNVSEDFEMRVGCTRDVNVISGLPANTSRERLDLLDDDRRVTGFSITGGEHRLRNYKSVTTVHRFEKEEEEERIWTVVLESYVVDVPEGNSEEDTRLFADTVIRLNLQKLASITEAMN
For `D153G`, the ABA EC50 was 239 µM.
With `R111H` the ABA EC50 was 116 µM.
With `E127Y` the ABA EC50 was 4.16 µM.
With `L91F` the ABA EC50 was 421 µM.
`R99A` gave an ABA EC50 of 40.3 µM.
The ABA EC50 of `E38N` is reported as 7.32 µM.
With `H34Y` the ABA EC50 was 5.05 µM.
`V121T` gave an ABA EC50 of 127 µM.
`E38P` gave an ABA EC50 of 49.3 µM.
For `R90E`, the ABA EC50 was 42.3 µM.
`E152F` has an ABA EC50 of 5.05 µM.
`H55V` gave an ABA EC50 of 0.115 µM.
`T73D` has an ABA EC50 of 50 µM.
For `S104F`, the ABA EC50 was 457 µM.
For `D144H`, the ABA EC50 was 85 µM.
For `E125P`, the ABA EC50 was 2.04 µM.
With `C72E` the ABA EC50 was 2.52 µM.
For `E127T`, the ABA EC50 was 2.67 µM.
`E131W` gave an ABA EC50 of 16.3 µM.
With `F5C` the ABA EC50 was 2.59 µM.
`F15V` gave an ABA EC50 of 59.2 µM.
For `A170C`, the ABA EC50 was 2.82 µM.
`T135A` has an ABA EC50 of 15 µM.
The ABA EC50 of `M68Q` is reported as 6.8 µM.
With `V136K` the ABA EC50 was 261 µM.

Mixed results
`PhoQ, residues 284 288 289 292 302 303 ASVMEA` gave a fold induction of 30.2 (PhoP, residues 12 14 15 18 19 NHFIF (Escherichia coli, UniProt P23836); Sort-seq, refers to: YFP reporter; E. coli; PhoQ-PhoP variant library, together with: 10 µM Mg2+; relative to: high Mg2+ state, higher = stronger signaling).

For quick reference, copied from above (block 7):
With `R111H` the ABA EC50 was 116 µM.
With `E127Y` the ABA EC50 was 4.16 µM.
With `L91F` the ABA EC50 was 421 µM.
`R99A` gave an ABA EC50 of 40.3 µM.
The ABA EC50 of `E38N` is reported as 7.32 µM.
With `H34Y` the ABA EC50 was 5.05 µM.
`V121T` gave an ABA EC50 of 127 µM.
`E38P` gave an ABA EC50 of 49.3 µM.
For `R90E`, the ABA EC50 was 42.3 µM.
`E152F` has an ABA EC50 of 5.05 µM.
`H55V` gave an ABA EC50 of 0.115 µM.
`T73D` has an ABA EC50 of 50 µM.
For `S104F`, the ABA EC50 was 457 µM.
For `D144H`, the ABA EC50 was 85 µM.
For `E125P`, the ABA EC50 was 2.04 µM.
With `C72E` the ABA EC50 was 2.52 µM.
For `E127T`, the ABA EC50 was 2.67 µM.
